Assay results of several laboratories.
Each line is one published result; not all experiments were run side by side. “And” joins repeats or separate records; there may be more than shown. Numbers after ± are the reported error.

| Structure (SMILES) | assay | test system | conditions | how to read | endpoint | value |
| --- | --- | --- | --- | --- | --- | --- |
| C[C@H](Oc1ccc(Br)cc1-c1ccon1)C(=O)O | MVRC latency | human, tibialis anterior muscle | 400 mg, SAD | – | difference from placebo | -0.209 ms |
| Cc1coc([C@H]2C[C@H]3[C@@H](CF)SC(N)=N[C@@]3(c3ccc(F)cc3F)CO2)n1 | item: Aβx-40 | wild-type mouse, brain | subcutaneous, 80 mg/kg, 1 h | – | brain Aβ40 level | 1.63 ng/g |
| C[C@@H](NC(=O)N1C(=O)[C@H](Cc2ccnc(N)c2)[C@H]1C(=O)O)C1CCCCC1 | – | human | iv infusion, 0.3 mg/kg/h, 24 h | relative to: baseline | time to ACT Emax | 60 h |
| CC1(C)OCCn2c1nc1c(N3CCOCC3)nc(-c3cnc(N)nc3)nc12 | RNA sequencing, item: HALLMARK_TGF_BETA_SIGNALING | MB002 tumour | concentration not given | relative to: vehicle, direction not given | GSEA enrichment score | 0.207 |
| NCC(=O)Nc1cncc(-c2nn3c(=O)cc(N4CCNCC4)nc3s2)c1 | ADP-induced platelet aggregation, light transmission aggregometry | human, stable CAD on aspirin, ex vivo platelets | subcutaneous, 0.04 mg/kg, 5 min post-dose, mean value, added: ADP 20 µM | – | inhibition | 20.5% |
| N[C@@H](Cc1cc(I)c(O)c(I)c1)C(=O)O | binding, MIDAS equilibrium dialysis LC-MS | A2AR-BRIL thermostabilized | concentration not given | relative to: no-protein control | log2 fold change | -0.0745 |
| O=P(O)(O)C(Cl)(Cl)P(=O)(O)O | immunostaining | mouse, sham-operated, meninges | dose not given, day 1 | relative to: total area | GFAP-positive area | 3.35% |
| COc1cc2nccc(Oc3ccc(NC(=O)c4cc5c(n(-c6ccccc6)c4=O)CCCC5=O)nc3)c2cc1OC | logrank | MOLM-13 luc/gfp xenograft, mice | diet, 0.013% in feed | relative to: control over treated | hazard ratio | 3.01 |
| Cc1nc(C#Cc2cccnc2)cs1 | spontaneous epileptiform population spikes, field recording | CA3 pyramidal neurons, rat, hippocampal slice | 10 µM, 10 min | relative to: baseline | inter-event interval | 143 ± 14.4% |
| CCc1c(C)nc(-c2ccc(Cl)s2)nc1Nc1ccc(CC(=O)O)cc1 | – | C57BL/6J mouse, high-fat diet MASH model | intraperitoneal, 0.3 mg/kg daily, 60% fat diet for 12 weeks, dosed final four weeks | relative to: untreated | inguinal white adipose weight | no effect |
| Cc1cnc(N2CC3(CCOCC3)C2)c(C(=O)Nc2ccc(C(=O)N3CCc4cc(C(=O)Nc5c(C)cccc5F)sc4-c4ccccc43)cc2)c1 | item: IL-4 | human RSV infection, nasal wash | dose not given, AUC, ITT-IS population | relative to: placebo | inhibition | 8% |
| C[C@H]1O[C@@H](O[C@H]2CC[C@@]3(C)[C@@H](CC[C@]4(C)[C@@H]3C=C[C@]35OC[C@@]6(CCC(C)(C)C[C@H]63)[C@@H](O)C[C@]54C)[C@]2(C)CO)[C@H](O)[C@@H](O[C@@H]2O[C@H](CO)[C@@H](O)[C@H](O)[C@H]2O)[C@H]1O | H&E staining | chronic-plus-binge ethanol mice | dose not given, high dose | – | adipose area | 7.12% and 6.73% and 8.55% and 9.73% |
| COc1ccc(-c2cncc(N[C@@H](C)c3cccc(NC(=O)c4cncc(C)c4)c3)n2)cc1OC | item: rno-miR-193-3p | rat SU5416/hypoxia model, lung | dose not given, unit not given | relative to: SU5416/hypoxia vehicle | delta delta Ct | -0.000833 |
| O=C(O)CNC(=O)Cc1ccccc1 | – | ventricular cardiomyocytes, C57BL/6 mouse | dose not given, 0.172 s | – | sarcomere length | 1.63 µm |
| COc1cc(Nc2ncc3c(n2)-c2ccc(Cl)cc2C(c2c(F)cccc2OC)=NC3)ccc1C(=O)O | – | mouse, NB-1771 neuroblastoma xenograft | 2.6 mg/kg | direction not given | median response score | 2 |
| CCCCCN1C[C@H](O)[C@@H](O)[C@H](O)[C@@H]1CO | RNA sequencing, item: Hallmark interferon gamma genes | Hexb-/- mouse, hippocampus | 300 mg/kg/day | direction not given | genomic disease score | 0.47 |
| OC(CCN1CCCCC1)(c1ccccc1)C1CC2C=CC1C2 (stereo not drawn) | resting-state EEG | healthy elderly humans | oral, 4 mg, eyes closed, LS mean | relative to: baseline | change in EEG Beta2-power Pz-O2 | -13.1% |
| OC[C@H]1O[C@H](OC[C@H]2O[C@H](O[C@]3(CO)O[C@H](CO)[C@@H](O)[C@@H]3O)[C@H](O)[C@@H](O)[C@@H]2O)[C@H](O)[C@@H](O)[C@H]1O | binding, MIDAS equilibrium dialysis LC-MS | A2AR-BRIL thermostabilized | concentration not given | relative to: no-protein control | log2 fold change | -0.142 |
| Oc1ccc(Br)cc1C=NCCN1CCOCC1 | FRAP | – | 160 µM | – | ferric reducing power | 31.3% |
| OC[C@H]1O[C@@H](c2ccc(Cl)c(Cc3ccc(O[C@H]4CCOC4)cc3)c2)[C@H](O)[C@@H](O)[C@@H]1O | fasting plasma glucose, exposure-response PK/PD model | type 2 diabetes patients | final model estimate | – | typical Gmax | 0.217% |
| Cn1cc(Nc2nccc(-c3ccc4c(c3)CN(C3COC3)CC[C@H]4NC(=O)c3cn(C(C)(C)C)nn3)n2)cn1 | item: HMGB1 signalling | mouse splenic B cells, mouse | 30 mg/kg, IgD-activated B cells in vivo | relative to: vehicle, direction not given | pathway activation z-score | 2.83 |
| N#Cc1ccc2c(c1)[C@H]1CCCN(C(=O)c3ccc4[nH]cnc4c3)[C@H]1C2 | – | T2DM patients with overweight or obesity, plasma | oral, 160 mg, day 15 (360 h), multiple dosing, mean | – | fasting plasma insulin | 15.1 mU/L |
| c1ccc(-c2n[nH]cc2-c2ccnc3ccccc23)nc1 | kinase binding, competitor, MIB/MS competition, item: SSK2 | Candida albicans cell lysate | 10 µM | relative to: DMSO | log2 fold change | 1.07 |
| CC(C)c1c(C(=O)Nc2ccccc2)c(-c2ccccc2)c(-c2ccc(F)cc2)n1CC[C@@H](O)C[C@@H](O)CC(=O)O | – | cynomolgus monkey, male, serum | 40 mg/kg or 25 mg/kg, day 176, 4224 h | – | HDL-C | 64 mg/dL |
| [2H][C@]1(Cc2ccc(OCCc3ccc(CC)cn3)cc2)SC(=O)NC1=O | – | C57BL/6J mouse, choline-deficient diet | dose not given | – | plasma AST | decreased |
| N#Cc1ccn2c(-c3ccncc3)c(-c3ccc(F)cc3)nc2c1 | kinase binding, competitor, MIB/MS competition, item: CEK1 | Candida albicans cell lysate | 10 µM | relative to: DMSO | log2 fold change | 0.506 |

| Structure (SMILES) | assay | test system | conditions | how to read | endpoint | value |
| --- | --- | --- | --- | --- | --- | --- |
| C[C@H](N)C(=O)O | binding, MIDAS equilibrium dialysis LC-MS | A2AR-BRIL thermostabilized | concentration not given | relative to: no-protein control | log2 fold change | -0.168 |
| O=C(O)CNC(=O)C(CS)Cc1ccccc1 (stereo not drawn) | LC-MS/MS, item: extracellular Met-enkephalin | mouse striatal brain slices | 10 µM, 20 min, added: 50 mM KCl | – | Met-enkephalin concentration | 9310 pM and 7820 pM and 6490 pM and 13000 pM and 26400 pM and 7790 pM and 15200 pM |
| COc1cccc2c1C(=O)c1c(O)c3c(c(O)c1C2=O)C[C@@](O)(C(=O)CO)C[C@@H]3O[C@H]1C[C@H](N)[C@H](O)[C@H](C)O1 | organoid viability, CellTiter-Glo 3D | sample A colorectal cancer organoid, human | 6 days | – | IC50 | 4.63 nM |
| N#CCC1CCN(c2nc(Nc3ccc(N4CCC(O)CC4)cc3)c3c(=O)[nH]ncc3n2)CC1 | Olink multiplex | human, serum | 40 mg, day 15, unit not given | relative to: baseline | GIF level change | 1.32 |
| Cc1n[nH]c2ccc(-c3cc(OC[C@@H](N)Cc4ccccc4)cnc3-c3ccoc3)cc12 | kinase binding, competitor, MIB/MS competition, item: HRR25 | Candida albicans cell lysate | 1 µM | relative to: DMSO | log2 fold change | -0.114 |
| C=CCn1c(=O)c2cnc(Nc3ccc(N4CCN(C)CC4)cc3)nc2n1-c1ccc2c(n1)[C@@](O)(CC)CC2 | – | OVCAR-3 xenograft, NOD/SCID mouse | 90 mg/kg once daily, :2 | – | tumour growth inhibition | 99.8% |
| Nc1ccn([C@@H]2O[C@H](COP(=O)(O)OP(=O)(O)O)[C@@H](O)[C@H]2O)c(=O)n1 | binding, MIDAS equilibrium dialysis LC-MS | A2AR-BRIL thermostabilized | concentration not given | relative to: no-protein control | log2 fold change | -0.76 |
| CC(=O)Oc1cc2c(s1)CCN(C(C(=O)C1CC1)c1ccccc1F)C2 (stereo not drawn) | platelet aggregation, light transmittance aggregometry | human, platelet-rich plasma | dose not given, 15 min, IPA above 90 %, added: TRAP 15 µM | relative to: patients | patients with IPA above threshold | 0% |
| CCCCC1(CCCC)CN(c2ccccc2)c2cc(SC)c(OCC(=O)N[C@@H](C(=O)NCC(=O)O)c3ccccc3)cc2S(=O)(=O)C1 | item: 7α-hydroxy-4-cholesten-3-one | human, plasma | 20 mg once daily, day 9 | – | plasma C4 | 76.1 ng/mL |
| Nc1ccn([C@H]2C[C@H](O)[C@@H](COP(=O)(O)O)O2)c(=O)n1 | binding, MIDAS equilibrium dialysis LC-MS | A2AR-BRIL thermostabilized | concentration not given | relative to: no-protein control | log2 fold change | 0.234 |
| Cc1cc([C@H]2C[C@H]3[C@@H](C)SC(N)=N[C@@]3(c3ccc(F)cc3F)CO2)on1 | item: Aβx-40 | Mus musculus wild-type, cerebrospinal fluid | subcutaneous, 50 mg/kg, 7 h | – | Aβ40 level | 0.52 ng/mL |
| Cc1noc(C)c1-c1cc(C(O)(c2ccccn2)c2ccccn2)c2nc(C3CC3)[nH]c2c1 | item: CCR2 expression | human, peripheral blood | 3 mg, day 8, 1599 study | – | maximum inhibition | 43.2% |
| CN[C@@H]1COc2c(S(=O)(=O)NC(=O)Nc3c4c(cc5c3CCC5)CCC4)cnn2C1 | item: IL-1β | human participants, whole blood ex vivo | 1800 mg single dose, 4 h, added: LPS/ATP | relative to: baseline | inhibition | 99.9% |
| Cn1cc([C@H]2C[C@H]3CSC(N)=N[C@@]3(c3ccc(F)cc3F)CO2)cn1 | item: Aβx-42 | Mus musculus wild-type, brain | subcutaneous, 10 mg/kg, 1 h | – | Aβ42 level | 0.54 ng/g |
| N#Cc1ccc2c(c1)[C@H]1CCCN(C(=O)c3ccc4[nH]cnc4c3)[C@H]1C2 | – | human clinical trial | oral, 240 mg once daily, 28 d | – | fasting plasma insulin change | 10.5 pmol/L |
| O=C1CCc2ccc(OCCCCN3CCN(c4cccc(Cl)c4Cl)CC3)cc2N1 | treatment discontinuation, Cox regression | human patients, CYP2D6 IM/PM/UM | dose not given, 12 months, genetic phenotype only | relative to: CYP2D6 normal metabolizers | hazard ratio | 1.59 |
| CC(C)NCC(O)c1ccc(O)c(O)c1 (stereo not drawn) | – | ventricular cardiomyocytes, C57BL/6 mouse | dose not given, 0.576 s | – | sarcomere length | 1.58 µm |
| Cc1cc([C@H]2C[C@H]3[C@@H](CF)SC(N)=N[C@@]3(c3ccc(F)cc3F)CO2)on1 | item: Aβx-40 | Mus musculus wild-type, cerebrospinal fluid | subcutaneous, 100 mg/kg, 5 h | – | Aβ40 level | 0.26 ng/mL |
| CCCCCCCCCC(=O)O | binding, MIDAS equilibrium dialysis LC-MS | A2AR-BRIL thermostabilized | concentration not given | relative to: no-protein control | log2 fold change | 0.987 |
| C[C@@H](O)CCOC(=O)C[C@@H](C)O | item: Ala | human, plasma | 60 min, log2-transformed values | – | metabolite level | 8.69 ± 0.25 µmol/L |
| CCOCc1nc(O)c(-c2nnc(Cc3ccc(Cl)cn3)o2)c(O)c1-c1c(OC)cccc1OC | – | instrumented anaesthetised rat | intravenous infusion, 1 µg/kg/min for 15 min, 15 min | relative to: baseline | SV change | 6 ± 0.6% |
| NC(=O)NCCC[C@H](N)C(=O)O | binding, MIDAS equilibrium dialysis LC-MS | A2AR-BRIL thermostabilized | concentration not given | relative to: no-protein control | log2 fold change | 0.795 |
| C[C@H]1C[C@H]2CSC(N)=N[C@@]2(c2nc(NC(=O)c3ccc(OC(F)F)cn3)cs2)CO1 | item: Aβx-40 | healthy adults, plasma | 3 mg single dose, 48 h post-dose | relative to: placebo | percent change from baseline | -18% |
| Nc1c(O)cccc1C(=O)O | binding, MIDAS equilibrium dialysis LC-MS | A2AR-BRIL thermostabilized | concentration not given | relative to: no-protein control | log2 fold change | 0.0596 |
| NC(=O)c1cnc2[nH]ccc2c1N[C@@H]1[C@@H]2CC3C[C@H]1C[C@@](O)(C3)C2 | flow cytometry, item: regulatory T cells | Japanese healthy subjects, peripheral blood | oral, 30 mg twice daily, day 4 | – | change from baseline | -0.17% |
